Experimental data collected from several papers.
Every numbered part comes from another study and shows a few of its results, in no order. Changes are numbered by the printed parent chain.

Block 1
Target: ABI1, truncated, D143A, DHFR fusion (Arabidopsis thaliana, UniProt P49597)
Technique: DHFR PCA, dose-response
Matrix: yeast
Setting: Hill fit, mean, not affinity
Together with: (+)-ABA, dose series
Reading: lower = more sensitive
Measurement: ABA EC50
Starting sequence: PYL1, truncated, DHFR fusion (Arabidopsis thaliana, UniProt Q8VZS8); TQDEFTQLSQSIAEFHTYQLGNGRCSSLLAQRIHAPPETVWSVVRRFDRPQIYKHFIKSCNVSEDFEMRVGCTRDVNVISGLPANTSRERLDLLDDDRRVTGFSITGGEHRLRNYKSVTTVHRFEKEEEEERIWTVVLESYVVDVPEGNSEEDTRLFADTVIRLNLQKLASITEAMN
K116H: 5.31 µM
E127D: 1.67 µM
S26V: 15.2 µM
D153S: 99.7 µM
A170K: 1.67 µM
L91W: 125 µM
S11M: 3.4 µM
I12L: 15 µM
G148A: 21.5 µM
G148K: 19.4 µM
A35I: 219 µM
E38Q: 4.08 µM
R123N: 2.22 µM
V136R: 667 µM
I105A: 112 µM
S63W: 38.6 µM
I172W: 37 µM

Block 2
Target: CCNB2, cyclin fold, Cln2 fusion (human)
Technique: yeast growth competition, sequencing
Matrix: yeast
Setting: weak parent motif
Reference: not given
Reading: higher = stronger binding
Measurement: normalised enrichment score
Starting sequence: GMNC docking peptide (human); KNAKRNLSSEFAN
KNAKNNLSSEFAN [R5N]: 0.803
KNAKRELSSEFAN [N6E]: 0.521
KNAQRNLSSEFAN [K4Q]: 0.147
KWAKRNLSSEFAN [N2W]: 0.364
KNALRNLSSEFAN [K4L]: 0.464
KNAKRNLSSEFFN [A12F]: 0.498
KNAKRVLSSEFAN [N6V]: 0.17
KNAKFNLSSEFAN [R5F]: -0.083
KNAARNLSSEFAN [K4A]: 0.266
KNAKRNLSSEFCN [A12C]: 0.311
KNAKRLLSSEFAN [N6L]: -0.159
KNAKRNLSSEFIN [A12I]: 0.501
KNAKRNLSSFFAN [E10F]: -0.038
KNAKRNLSSWFAN [E10W]: 0.716
KNAKRNLSSELAN [F11L]: 0.267
KNWKRNLSSEFAN [A3W]: 0.529
KNAKRNLFSEFAN [S8F]: 0.869
KNAKMNLSSEFAN [R5M]: 0.0198
KEAKRNLSSEFAN [N2E]: 0.69
KNAKRNLSSRFAN [E10R]: 0.704
KNAKRNLSSVFAN [E10V]: 0.295
KNAKRNHSSEFAN [L7H]: 0.512
KNAVRNLSSEFAN [K4V]: 0.415
KNAKRNLSFEFAN [S9F]: 0.302
KNAKRNLSGEFAN [S9G]: 0.154

Block 3
Target: Fragile X messenger ribonucleoprotein 1, C-terminal low-complexity region (Fmr1, Mus musculus, UniProt P35922)
Technique: RNA Bind-n-Seq
Molecule type: RNA
Matrix: in vitro
Tested at: 200 nM
Setting: whole 134-nt RNA, ends assumed
Together with: 150 mM KCl
Reference: input library
Reading: higher = stronger binding
Measurement: log2 enrichment
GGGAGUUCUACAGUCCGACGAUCCUGUGCUACACAUCGUAUGUACCGAAUCGGGAAAAAAGGGGAAAAAAGGGGAAAAAAGGGGAAAGUAUUAUGUUACGCCGUUCGGAUCUGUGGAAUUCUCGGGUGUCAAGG: -0.343
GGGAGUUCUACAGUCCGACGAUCACCAUGCAGGUGGGCAUCUUUGGGAAGUGGGGCUAGGGGGGGAUAGGGAGGGGGGUAACACUUUGGGAACAGGUGGUCCCAGGUCGUUUCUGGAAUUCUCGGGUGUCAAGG: 0.715
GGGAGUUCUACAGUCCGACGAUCAGUUACUCAGUUCAUUUUGGAUAACUACAUUGAAAGAGGAAAAGGAUCUGCUUGCAGAAUAGUUUGUACUCAGCCAAGAAGAAUUAGUGCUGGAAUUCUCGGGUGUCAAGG: -1.82
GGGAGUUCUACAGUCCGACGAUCGUCCUGUGCUACACAUCGUAUGUACCGAAUCGGGAAAAAAAGGGAGGGAAAAAAAGGGAAAGUAUUAUGUUACGCCGUUCGGAUCUGCACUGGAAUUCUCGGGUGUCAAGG: -0.145
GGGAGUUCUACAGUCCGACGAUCCACAGACAACACGCACCCACACAGACACAGAGGGAAGGGGUUGGGAUGGGGACAGGGUGCACAGCAGGGCGGGGUAGAACCCCAGCCCCUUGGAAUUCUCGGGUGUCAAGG: 1.17
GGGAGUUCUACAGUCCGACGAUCUAUGCCACGCCCUUUGAGGACUCGAAGAUCAUGGUCUCUGACUUUGGACUCUCCAAAAUCCAGGCUGGGAACAUGCUAGGCACCGCCUGUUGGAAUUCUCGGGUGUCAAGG: 0.176
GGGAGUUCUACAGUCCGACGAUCAGUCCUGUGCUACACAUCGUAUGUACCGAAUCGGUUUUGGGGUUUUGGGUUUUGGGGAAAGUAUUAUGUUACGCCGUUCGGAUCUGCACUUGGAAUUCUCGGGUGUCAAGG: 0.104
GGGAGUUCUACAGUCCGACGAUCUUGCAGCAACUGCUACCAGCCUCCCAGUCCACACAGCUGCCAUGCUCAAGUUCCCCUCAGGAGACCACCCAGUCUCGCCCUAUGCCGCCGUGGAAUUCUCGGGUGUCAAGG: 0.252
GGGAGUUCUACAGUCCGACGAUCCUCAAGUCCUGUGCUACACAUCGUAUGUACCGAAUCGGGGCGGGCGGGGCGGGGAAAGUAUUAUGUUACGCCGUUCGGAUCUGCACUUCCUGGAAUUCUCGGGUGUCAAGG: 0.868
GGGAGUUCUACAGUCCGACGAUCACCAUGCAGGUGGGCAUCUUUGGGAAGUGGGGCAAGGGGGGGAUAGGGAGGGGGGUAACACUUUGGGAACAGGUGGUCCCAGGUCAAAUCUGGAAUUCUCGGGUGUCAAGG: 0.591
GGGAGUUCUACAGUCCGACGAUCGUCCUGUGCUACACAUCGUAUGUACCGAAUCGGCCCCCGGGGCCCCCGGGGCCCCCGGGAAAGUAUUAUGUUACGCCGUUCGGAUCUGCAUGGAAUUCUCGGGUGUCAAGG: -0.634
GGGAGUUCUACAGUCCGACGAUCGUCCUGUGCUACACAUCGUAUGUACCGAAUCGGUUUUUUGGUUUUUUGGGUUUUUUGGGAAAGUAUUAUGUUACGCCGUUCGGAUCUGCAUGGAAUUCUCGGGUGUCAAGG: -0.687
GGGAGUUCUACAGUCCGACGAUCUGACCCUGGUGGCAUGCGGGGAGGAAGAGGUGGCCUCAUGGAUCGUGGUGGUCCCGGUGGAAUGUUCAGAGGUGGCCGUGGUGGAGACAGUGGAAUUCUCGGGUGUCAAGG: 0.171
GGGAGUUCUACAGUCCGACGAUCAAAAUUUCCAGUACCUUUGUCACAAUCCUAACACAUUAUCGGGAGCAGUGUCUUCCAUAAUGUAUAAAGAACAAGGUAGUUUUUACCUACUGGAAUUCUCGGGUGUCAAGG: -0.513

Block 4
Target: RNA binding protein fox-1 homolog 2, RRM domain, GST-SBP tag (RBFOX2, Homo sapiens, UniProt O43251-10, residues 100-194)
Technique: RNA Bind-n-Seq
Molecule type: RNA
Matrix: in vitro
Tested at: 365 nM
Setting: natural RNA segment, single round, ends assumed
Reference: no-protein control
Reading: higher = stronger binding
Measurement: RBNS enrichment (R)
Target sequence (chain): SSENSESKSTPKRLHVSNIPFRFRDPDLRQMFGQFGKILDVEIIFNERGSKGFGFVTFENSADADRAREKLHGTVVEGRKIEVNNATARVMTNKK
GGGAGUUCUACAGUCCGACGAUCGAGAUGUCUGGAAGGGUUACUUAGCCAAAUUUUACUCAAGCCAAUUAGGAGCUGAUAUUAUCAGUUGGAAUUAAGAGAACUCCAGAGGUUUCCAUUUCAAACAAAAUUUUUGGAAUUCUCGGGUGCCAA: 0.606
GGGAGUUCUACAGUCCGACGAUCUCUAAGAAGCUCAGUUUUGCGGUUUUGAUUUCAGGUUGCAAACAUUUAAAUUGUGCACAGCAACAGGUUCUCAGUUCUGCCAGUUCCUUUAUGCUCCUGUAAUCGGCUAAUGGAAUUCUCGGGUGCCAA: 0.346
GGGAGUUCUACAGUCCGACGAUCUAUGCUCACUGGUCAUCACAUUCAGCUUAUUCUUACGUGCCAGUGAGGCCCUAAGGUCUCAGUGCAUAGCAUACCUGCCACUCUGGAUGUUUUCCUGGGCUUCAUAUCUGUGGAAUUCUCGGGUGCCAA: 0.384
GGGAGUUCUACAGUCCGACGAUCCUGCAACUGCUCAGCUCUGGUCCAGGCCCUGUGGCAGGACACACAUGGUGAGCCUAGCCCUGGGACAUCAGGAGACUGGGCUCUGGCUCUGUUCGGCCUUUGGGUGUGUGUGGAAUUCUCGGGUGCCAA: 0.405
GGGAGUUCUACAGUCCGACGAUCGAGAAACAAAGUCUACUGUGUAUUUGACAGCUAUUUAUCACCAAGACAACUGUAAAGAAAUCAAGCUGGCUGACUGUAUGAUUGCUAUUUACUUAAAGUUGACAACGUUAUGGAAUUCUCGGGUGCCAA: 0.42
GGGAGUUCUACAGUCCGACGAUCUGUUUGUCUAGUCUGUGAAUGGCCGGCUUCAGUGAUUGACAUGCUGUUAGCCCAGUGAGUUCUCCACAGUUACUGUAUGUGAUCUUCAUGGGCAGCAAAUGGAAAGUCUUUGGAAUUCUCGGGUGCCAA: 0.256
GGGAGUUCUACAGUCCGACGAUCAGGGGAAAAACCAAAGUUAUUUGUUUUGCAUGGCUAAGCCAUUCUGUUAUCUCUGUAAAUACUGUGAUUUCUUUUUUAUUUUCUCUUUAGAAUUUUGUUAAAGAAAUUCUUGGAAUUCUCGGGUGCCAA: 0.581
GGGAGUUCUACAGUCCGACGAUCGCCGGGCCGACGCCUCCGAGGUGCCCAGGGAGGCUGAGUGAGGCCACGCAGCCGCCUGCCCGGGAGAACCCUGCCUGAAGCUCUGGAAACUUGUGGGUGGGGCCCAGGGAUGGAAUUCUCGGGUGCCAA: 0.277
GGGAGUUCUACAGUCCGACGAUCUGCAUAAUACAGAAAGCCUGUGAACACAUGGAAGAUGAUCCUCAUGGUAUGUAUGGUCUGUGUCUUUGGUGAAAUGCAGACUAGAUACCUAAGAACCAGCUUCCCAGUGGUGGAAUUCUCGGGUGCCAA: 0.274
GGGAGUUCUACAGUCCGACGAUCAGAUGAAUUGUUUUCAUCUGAAGCCUGCUAUCUUUUUUAAAAGAUGUGCUAUUUAUUCUUGCACGAUUUAGGCAAUUAUCUCUCUUCCAGGGAGUACCUUUUUUUCUAGUUGGAAUUCUCGGGUGCCAA: 0.577
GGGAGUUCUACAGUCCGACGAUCAUAAUGACCUAUUUCUAUAAAAAAAUAAAAUUGUACGGAUUAUGUGUAAAUUAUUUUGUAUCUGAGAUACCAGUUCCAUUCCCACAUAUGAAAGUAUAAAGGUUUCCUUGUGGAAUUCUCGGGUGCCAA: 0.463
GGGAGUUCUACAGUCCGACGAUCAUGUUGGUCCUUUGUUUACCUCCUAAACCACAGCUGUUUGUGUUUCACAUAUGUUGUGAAUUUUCCUUGGUUCUUUUUAAAGGAAUGAUAAUAAAGUUACUUGCUUUAGGUGGAAUUCUCGGGUGCCAA: 0.219

Some of these lines once more (block 3):
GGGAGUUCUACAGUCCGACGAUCAGUCCUGUGCUACACAUCGUAUGUACCGAAUCGGUUUUGGGGUUUUGGGUUUUGGGGAAAGUAUUAUGUUACGCCGUUCGGAUCUGCACUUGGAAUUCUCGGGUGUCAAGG: 0.104
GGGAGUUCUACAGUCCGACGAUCUAUGCCACGCCCUUUGAGGACUCGAAGAUCAUGGUCUCUGACUUUGGACUCUCCAAAAUCCAGGCUGGGAACAUGCUAGGCACCGCCUGUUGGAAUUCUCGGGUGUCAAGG: 0.176
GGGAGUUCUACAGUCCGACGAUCGUCCUGUGCUACACAUCGUAUGUACCGAAUCGGGAAAAAAAGGGAGGGAAAAAAAGGGAAAGUAUUAUGUUACGCCGUUCGGAUCUGCACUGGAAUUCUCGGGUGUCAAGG: -0.145
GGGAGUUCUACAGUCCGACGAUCCACAGACAACACGCACCCACACAGACACAGAGGGAAGGGGUUGGGAUGGGGACAGGGUGCACAGCAGGGCGGGGUAGAACCCCAGCCCCUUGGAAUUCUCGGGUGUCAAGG: 1.17
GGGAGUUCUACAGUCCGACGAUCGUCCUGUGCUACACAUCGUAUGUACCGAAUCGGCCCCCGGGGCCCCCGGGGCCCCCGGGAAAGUAUUAUGUUACGCCGUUCGGAUCUGCAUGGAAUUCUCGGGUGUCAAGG: -0.634
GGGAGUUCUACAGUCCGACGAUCCUGUGCUACACAUCGUAUGUACCGAAUCGGGAAAAAAGGGGAAAAAAGGGGAAAAAAGGGGAAAGUAUUAUGUUACGCCGUUCGGAUCUGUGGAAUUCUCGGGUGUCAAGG: -0.343
